Measurements gathered from unrelated publications.
Lines come from different studies, so protocols differ. Values joined by “and” are separate records of one study, mostly repeats; a detail may differ.
Target: Ribosomal protein S6 kinase beta-1 (RPS6KB1, Homo sapiens, UniProt P23443)

`CN1CC[C@@H](COc2cnc(C#N)cc2-c2ccn3nc(NC(=O)C4CC4)cc3c2)C1` gave an inhibition of 4% (enzyme activity, inhibitor; 1 µM).
The remaining binding of `Nc1ncc2c(n1)-c1c([nH]c3ccc(C4=CCOCC4)cc13)CCC2` is reported as 100% (binding, competition with immobilised ligand; 1 µM).
The inhibition of `Cc1cccc(O[C@H]2CCC[C@@H](C(C)CNCc3ccncc3)C2)c1` (relative stereo) is reported as -1% (enzyme activity, inhibitor; 10 µM).
For `COc1cc(Nc2nccc(-c3cnn4nc(OC)ccc34)n2)cc(C(F)(F)F)c1`, the remaining binding was 73% (binding, competition with immobilised ligand; 1 µM).
`c1ccc2c(Nc3cc(C4CCC4)[nH]n3)nc(Nc3ccc4nc[nH]c4c3)nc2c1` has a remaining activity of 21% (enzyme activity, inhibitor; 0.25 µM).
`CNC(=O)C1CCN(c2cc(C)c(F)cc2NC(=O)c2ccc(-c3cc(O)ccc3C)c(C)c2)CC1` has a remaining binding of 98% (binding, competition with immobilised ligand; 1 µM).
With `C=CC(=O)N1Cc2nc(-c3cc(-c4cc(Cl)cnc4Cl)c(F)cc3F)n(-c3ccncn3)c2C1` the inhibition was 7.9% (cell-free assay, inhibitor; 1 µM).
`NC(=O)C[C@H]1CCc2sc3ncnc(O[C@H]4CC[C@H](N5CCOCC5)CC4)c3c21` has an inhibition of 4% (enzyme activity, inhibitor; 10 µM).
`Cc1cccc(-c2ccc3nc(NC(=O)C4CCOCC4)nn3c2)c1` has a remaining activity of 107% (enzyme activity, Dundee kinase panel; 10 µM).
With `CCN1CCN(Cc2ccc(C(=O)Nc3ccc(C)c(NCc4cnc5[nH]ccc5c4OC)c3)cc2C(F)(F)F)CC1` the remaining binding was 44% (binding, competition with immobilised ligand; 1 µM).
The inhibition of `C=CC(=O)Nc1cccc(-c2cnc3[nH]cc(C(=O)NC(C)(C)C)c3n2)c1` is reported as 3% and 2% (kinase activity; 0.1 µM).
The remaining activity of `Cc1cccc(-c2ccc3nc(NC(=O)C4CCCCC4)nn3c2)c1` is reported as 86% (enzyme activity, Dundee kinase panel; 10 µM).
The remaining activity of `Nc1ncc(-c2cc(-c3cnn(CC(F)(F)F)c3)ncc2F)nc1C(=O)NC1CNCC(F)C1` (stereo not shown) is reported as 94.6% (enzyme activity; 1 µM; baseline: DMSO control).

A few entries again:
With `C=CC(=O)N1Cc2nc(-c3cc(-c4cc(Cl)cnc4Cl)c(F)cc3F)n(-c3ccncn3)c2C1` the inhibition was 7.9% (cell-free assay, inhibitor; 1 µM).
